Published values pooled from the literature.
Lines come from different studies, so protocols differ.
Read-out: metabolic stability

| Compound | host | medium | concentration | pH | measurement | value |
| --- | --- | --- | --- | --- | --- | --- |
| Nc1nc(SCc2ccc(Cl)cc2)nn1S(=O)(=O)c1ccc2c(c1)CCO2 | mouse | liver microsomes | 1 µM | pH 7.4 | microsomal CLint | 233 µL/min/mg |
| CC(C)n1ncc2c(C(=O)NCCN)cc(C3CC3)nc21 | mouse | liver microsomes | – | – | scaled CLint | < 38 mL/min/kg |
| CCC(CC)CNC(=N)NC(=N)NCCCCCCNC(=N)NC(=N)NCC(CC)CC | mouse | hepatocytes | 1 µM | – | hepatocyte CLint | 10.7 µL/min/10⁶ cells |
| CC(C)n1ncc2c(C(=O)NC3(C)CNC3)cc(C3CC3)nc21 | mouse | liver microsomes | – | – | microsomal CLint | < 9.6 µL/min/mg |
| O=C(c1ccc(-c2cccc(C(F)(F)F)c2)cc1)N1CCN(c2ncccn2)CC1 | mouse | liver microsomes | – | – | microsomal CLint | 66 µL/min/mg |
| CNCCNC(=O)c1cc(C2CC2)nc2c1cnn2C(C)C | mouse | liver microsomes | – | – | microsomal CLint | 114 µL/min/mg |
| Cc1ncsc1-c1ccc([C@@H]2CCCCCCNC(=O)C[C@@H]3N=C(c4ccc(cc4)OCCCCCC(=O)N[C@@H](C(C)(C)C)C(=O)N4C[C@H](O)C[C@H]4C(=O)N2)c2c(sc(C)c2C)-n2c(C)nnc23)cc1 | mouse | liver microsomes | 1 µM | – | scaled CLint | 244 mL/min/kg |
| OCCn1nc(-c2ccccc2)c2c(Cl)c(-c3ccccc3)nnc21 | mouse | liver microsomes | 1 µM | – | microsomal CLint | > 554 µL/min/mg |
| Cn1ncc2cc(CN3CCC(F)(F)C(COc4cccc(F)c4)C3)ccc21 (stereo not shown) | mouse | liver microsomes | – | – | scaled CLint | 672 mL/min/kg |
| Cc1nn(C)c2nnc(-c3ccccc3)c(Cl)c12 | mouse | liver microsomes | 1 µM | – | microsomal CLint | > 554 µL/min/mg |
| CN(Cc1cc(C2CC2)on1)C(=O)c1cccc(-c2ccc(F)cc2)c1 | male CD-1 mouse | liver microsomes | 2 µM | pH 7.5 | microsomal CLint | 117 µL/min/mg |
| Cn1ncc2cc(CN3CCC(F)(F)C(COc4ccc(C#N)c(F)c4)C3)ccc21 (stereo not shown) | mouse | liver microsomes | – | – | scaled CLint | 2700 mL/min/kg |
| CC(C)n1ncc2c(C(=O)NCC(C)(C)N)cc(C3CC3)nc21 | mouse | liver microsomes | – | – | scaled CLint | < 38 mL/min/kg |
| Fc1ccc(OCC2CN(Cc3ncn4ccccc34)CCC2(F)F)cc1 (stereo not shown) | mouse | liver microsomes | – | – | scaled CLint | 2880 mL/min/kg |
| C/C(=N\OCCN(C)Cc1ccccc1)c1ccc(C(F)(F)F)cc1 | mouse | liver microsomes | – | – | scaled CLint | 2750 mL/min/kg |
| Fc1ccc(OCC2CN(Cc3cn4ccccc4n3)CCC2(F)F)cc1F (stereo not shown) | mouse | liver microsomes | – | – | scaled CLint | 1960 mL/min/kg |
| CC(C)n1ncc2c(C(=O)NCC3CCN3)cc(C3CC3)nc21 (stereo not shown) | mouse | liver microsomes | – | – | scaled CLint | 234 mL/min/kg |
| Cn1ncc2cc(CN3CCC(F)(F)C(COc4ccc(C#N)cc4)C3)ccc21 (stereo not shown) | mouse | liver microsomes | – | – | scaled CLint | 2240 mL/min/kg |
| CC(C)(C)[C@H](NC(=O)c1ccc(Oc2ccc(C(=O)N[C@H]3CCCC[C@@H]3O)cc2)cc1)C(=O)NCCN1CCCC1 | mouse | liver microsomes | 1 µM | pH 7.4 | microsomal CLint | 12.4 µL/min/mg |

For quick reference, copied from above:
| Compound | host | medium | concentration | pH | measurement | value |
| --- | --- | --- | --- | --- | --- | --- |
| Cn1ncc2cc(CN3CCC(F)(F)C(COc4ccc(C#N)cc4)C3)ccc21 (stereo not shown) | mouse | liver microsomes | – | – | scaled CLint | 2240 mL/min/kg |
| CC(C)n1ncc2c(C(=O)NCC3CCN3)cc(C3CC3)nc21 (stereo not shown) | mouse | liver microsomes | – | – | scaled CLint | 234 mL/min/kg |
